Results gathered from unrelated publications.
Parts stem from different laboratories: compare values within a part only. Changes are numbered by the printed parent chain.

Set 1
Target: TAR DNA-binding protein 43, full length, His tag (TARDBP, Homo sapiens, UniProt Q13148, residues 1-414)
Method: RNA Bind-n-Seq
Molecule type: RNA
Sample: in vitro
Tested at: 20 nM
Notes: 6-mer, flanks averaged, single round
Together with: 150 mM LiCl
Baseline: input library
Direction: higher = stronger binding
Under “6-mer enrichment (R)”, `CUAAGA` is recorded as 0.819.
`GCAGUG` — result for “6-mer enrichment (R)”: 1.14.
Under “6-mer enrichment (R)”, `UAUUGA` is recorded as 0.963.
`GCAGGC`: “6-mer enrichment (R)” 0.992.
`CGAGCU`: “6-mer enrichment (R)” 0.859.
`UCGACG` — result for “6-mer enrichment (R)”: 0.835.
`UUCUGC`: “6-mer enrichment (R)” 0.942.
`UCUGCC` — result for “6-mer enrichment (R)”: 0.934.

Set 2
Target: CCNE2, cyclin fold, Cln2 fusion (human)
Method: yeast growth competition, sequencing
Sample: yeast
Notes: weak parent motif
Baseline: not given
Direction: higher = stronger binding
Parent: SLBP docking peptide (human); ARYKRKLLINDFG
For `ARYKRWLLINDFG [K6W]`, “normalised enrichment score” read 1.45.
`VRYKRKLLINDFG [A1V]`: “normalised enrichment score” 1.59.
`DRYKRKLLINDFG [A1D]` — result for “normalised enrichment score”: 0.759.
Under “normalised enrichment score”, `ARYKRKFLINDFG [L7F]` is recorded as 1.03.
`ARYKRCLLINDFG [K6C]`: “normalised enrichment score” 1.32.
`ARYARKLLINDFG [K4A]` — result for “normalised enrichment score”: 0.375.
For `ARYPRKLLINDFG [K4P]`, “normalised enrichment score” read 0.0486.
`AHYKRKLLINDFG [R2H]` — result for “normalised enrichment score”: 1.28.

Set 3
Target: ABI1, truncated, D143A, DHFR fusion (Arabidopsis thaliana)
Method: DHFR PCA, deep sequencing
Sample: yeast
Notes: methotrexate growth selection, single substitutions
Together with: (+)-ABA 0.39 µM
Baseline: wild-type fitted maximum
Direction: higher = stronger binding
Parent: PYL1, truncated, DHFR fusion (Arabidopsis thaliana); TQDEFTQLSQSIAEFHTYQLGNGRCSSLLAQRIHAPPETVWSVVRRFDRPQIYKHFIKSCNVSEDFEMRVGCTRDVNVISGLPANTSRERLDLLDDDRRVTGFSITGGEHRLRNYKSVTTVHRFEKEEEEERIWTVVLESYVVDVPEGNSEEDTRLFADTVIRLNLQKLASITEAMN
`A170I` — result for “relative binding score”: -13.1%.
For `K168M`, “relative binding score” read 11.4%.
`R46A`: “relative binding score” 34.2%.
For `N22S`, “relative binding score” read 52.1%.
For `C60F`, “relative binding score” read 10%.
Under “relative binding score”, `D65Y` is recorded as 3.48%.
`G21T` — result for “relative binding score”: 47.2%.
`S87T` — result for “relative binding score”: 37.2%.
`Y141D`: “relative binding score” 1.97%.
For `Q10D`, “relative binding score” read 65.2%.
`V136K` — result for “relative binding score”: -14.2%.
Under “relative binding score”, `Q31W` is recorded as 1.76%.
Under “relative binding score”, `V70H` is recorded as 0.56%.
`I33F` — result for “relative binding score”: -3.44%.

Mixed results
Method: cross-linking MS
`MYH9 (Homo sapiens, UniProt P35579)`: interaction screen “cross-linked” (MYL6 (Homo sapiens, UniProt P60660); hits only).
`MCM4 (Homo sapiens, UniProt P33991)`: cross-linked residues “K549 to K205” (MCM6 (Homo sapiens, UniProt Q14566); cell fractions; together with: DSSO).

Some of these lines once more (set 3):
`S87T` — result for “relative binding score”: 37.2%.
Under “relative binding score”, `V70H` is recorded as 0.56%.
Under “relative binding score”, `Q31W` is recorded as 1.76%.
`Y141D`: “relative binding score” 1.97%.
`I33F` — result for “relative binding score”: -3.44%.
